Measurements from different studies.
Protocols differ between the studies behind these lines. “And” joins repeats or separate records; there may be more than shown.
Target: Proto-oncogene tyrosine-protein kinase ROS (ROS1, Homo sapiens, UniProt P08922)

| Structure (SMILES) | test | setting | how to read | endpoint | result |
| --- | --- | --- | --- | --- | --- |
| NC(=O)C[C@H]1CCc2sc3ncnc(O[C@H]4CC[C@H](N5CCOCC5)CC4)c3c21 | enzyme activity, inhibitor | 10 µM |  | inhibition | 28% |
| CCn1cc(C(=O)O)c(=O)c2c(N)c(F)c(NC3CCCCC3)cc21 | kinase activity | 0.1 µM, together with: ATP at Km |  | inhibition | 0.5% |
| O=C(Cc1ccc(OCc2ccccc2)cc1)NC1(C(=O)O)CCN(C(=O)c2ccc(-c3cccc(Cl)c3)cc2)CC1 | enzyme activity, inhibitor | 10 µM |  | activity vs control | 108% |
| CN1CC[C@@H](COc2cnc(C#N)cc2-c2ccn3nc(NC(=O)C4CC4)cc3c2)C1 | enzyme activity, inhibitor | 1 µM |  | inhibition | -22% |
| C[C@H]1CN(C(=O)c2cn(-c3ccnc(N)n3)c3cc(C#CC4(O)CCCCC4)ccc23)CCN1 | enzyme activity, inhibitor, FRET | 1 µM |  | inhibition | -3% |
| CNC1C[S+]2CC[S+]3CC[S+](C1)[Ru-4]321([N]=C=S)[n]2c3ccc(OC)cc3c3c4c(c5cc(F)c[n+]1c5c32)C(=O)NC4=O (stereo not drawn) | KinomeScan | 0.1 µM | relative to: untreated | remaining binding | 100% |
| C=CC(=O)Nc1cccc(-c2cnc3[nH]cc(C(=O)NC(C)(C)C)c3n2)c1 | kinase activity | 0.1 µM |  | inhibition | 2% and 5% |
| COCC12C(=O)NC3C4(C(OC)CC1O)C1CC5(O)C(OC)C(O)C(OC(C)=O)(C1C5OC(=O)c1ccccc1)C3(O)C(OC)C24 (stereo not drawn) | kinase activity, inhibitor, ProQinase kinase profiling | 25 µM | relative to: control | remaining activity | 104% and 103% |
| CNC(=O)C1CCN(c2cc(C)c(F)cc2NC(=O)c2ccc(-c3cc(O)ccc3C)c(C)c2)CC1 | binding, competition with immobilised ligand | 1 µM |  | remaining binding | 94% |
| CC(C)=CC1OC(C)(C)C2C=C3C(=O)C(Cl)=CC(O)C3C3C(O)C4OC4C(=O)C132 (stereo not drawn) | cell-free assay, competition with immobilised ligand | 10 µM |  | remaining binding | 98% |
| COc1c(Cl)cccc1Nc1c(-c2ccncc2C#C[C@@]2(C)CCCN2C(=O)/C=C/CN(C)C)[nH]c2c1C(=O)NCC2 | cell-free assay, competition with immobilised ligand | 3 µM |  | remaining binding | 100% |
| Cc1ccc(-c2c(/C=C(\C#N)C(=O)NC(C)C)n(CCCO)c3ncnc(N)c23)cc1 | cell-free assay, competition with immobilised ligand | 1 µM |  | remaining binding | 88% |
| COc1cc(Nc2nccc(-c3cnn4nc(OC)ccc34)n2)cc(C(F)(F)F)c1 | binding, competition with immobilised ligand | 1 µM |  | remaining binding | 86% |
| C=CC(=O)N1CCc2ccc(-n3c(=O)ccc4cnc5ccc(-c6cnn(C)c6)cc5c43)cc21 | KINOMEscan | 1 µM | relative to: DMSO control | remaining binding | 100% |
| Cc1cccc(O[C@H]2CCC[C@@H](C(C)CNCc3ccncc3)C2)c1 (relative stereo) | cell-free assay | 10 µM |  | inhibition | -3% |

Some of these lines once more:
| Structure (SMILES) | test | setting | how to read | endpoint | result |
| --- | --- | --- | --- | --- | --- |
| CNC(=O)C1CCN(c2cc(C)c(F)cc2NC(=O)c2ccc(-c3cc(O)ccc3C)c(C)c2)CC1 | binding, competition with immobilised ligand | 1 µM |  | remaining binding | 94% |
| COc1c(Cl)cccc1Nc1c(-c2ccncc2C#C[C@@]2(C)CCCN2C(=O)/C=C/CN(C)C)[nH]c2c1C(=O)NCC2 | cell-free assay, competition with immobilised ligand | 3 µM |  | remaining binding | 100% |
| C=CC(=O)Nc1cccc(-c2cnc3[nH]cc(C(=O)NC(C)(C)C)c3n2)c1 | kinase activity | 0.1 µM |  | inhibition | 2% and 5% |
